Published values of several laboratories.
Protocols differ between the studies behind these lines. “And” joins repeats or separate records; there may be more than shown. ± marks the error that the study gave.
BCHE: Cholinesterase (BCHE, Homo sapiens, UniProt P06276)
Sequence of UniProt Q01959 (whole entry, looked up): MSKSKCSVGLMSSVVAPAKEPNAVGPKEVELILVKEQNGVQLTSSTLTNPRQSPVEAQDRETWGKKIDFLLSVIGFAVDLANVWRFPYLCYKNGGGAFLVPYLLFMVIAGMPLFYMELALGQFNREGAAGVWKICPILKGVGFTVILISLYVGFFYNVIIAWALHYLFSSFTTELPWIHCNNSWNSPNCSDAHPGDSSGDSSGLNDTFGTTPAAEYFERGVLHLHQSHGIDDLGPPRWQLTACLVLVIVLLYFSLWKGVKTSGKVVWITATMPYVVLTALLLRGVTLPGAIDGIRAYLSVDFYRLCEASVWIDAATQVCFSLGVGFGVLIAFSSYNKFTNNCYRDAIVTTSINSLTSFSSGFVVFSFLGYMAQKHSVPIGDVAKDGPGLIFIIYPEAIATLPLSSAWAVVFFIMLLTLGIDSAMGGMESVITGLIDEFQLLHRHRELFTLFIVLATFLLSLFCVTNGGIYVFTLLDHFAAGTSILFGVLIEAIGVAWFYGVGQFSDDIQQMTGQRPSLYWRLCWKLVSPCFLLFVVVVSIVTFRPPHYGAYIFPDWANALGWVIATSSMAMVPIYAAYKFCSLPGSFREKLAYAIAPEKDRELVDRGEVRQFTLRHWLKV
Sequence of UniProt P06276 (whole entry, looked up): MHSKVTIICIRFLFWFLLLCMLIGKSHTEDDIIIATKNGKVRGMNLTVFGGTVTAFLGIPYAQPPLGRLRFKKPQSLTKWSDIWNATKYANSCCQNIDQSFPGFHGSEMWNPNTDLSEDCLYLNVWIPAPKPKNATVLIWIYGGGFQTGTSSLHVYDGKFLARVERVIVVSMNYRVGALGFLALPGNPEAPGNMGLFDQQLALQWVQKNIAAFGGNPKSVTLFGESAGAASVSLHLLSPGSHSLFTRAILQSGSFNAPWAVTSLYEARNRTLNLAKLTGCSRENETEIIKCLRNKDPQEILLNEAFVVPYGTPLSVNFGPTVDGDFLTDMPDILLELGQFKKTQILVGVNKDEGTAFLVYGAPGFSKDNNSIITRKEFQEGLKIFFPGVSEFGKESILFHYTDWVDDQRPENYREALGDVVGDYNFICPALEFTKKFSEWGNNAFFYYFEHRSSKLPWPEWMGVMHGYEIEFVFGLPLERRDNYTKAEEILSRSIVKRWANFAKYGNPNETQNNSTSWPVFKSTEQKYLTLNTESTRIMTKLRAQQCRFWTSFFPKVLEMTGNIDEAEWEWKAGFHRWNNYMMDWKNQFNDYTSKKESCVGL
Sequence of UniProt P29275 (whole entry, looked up): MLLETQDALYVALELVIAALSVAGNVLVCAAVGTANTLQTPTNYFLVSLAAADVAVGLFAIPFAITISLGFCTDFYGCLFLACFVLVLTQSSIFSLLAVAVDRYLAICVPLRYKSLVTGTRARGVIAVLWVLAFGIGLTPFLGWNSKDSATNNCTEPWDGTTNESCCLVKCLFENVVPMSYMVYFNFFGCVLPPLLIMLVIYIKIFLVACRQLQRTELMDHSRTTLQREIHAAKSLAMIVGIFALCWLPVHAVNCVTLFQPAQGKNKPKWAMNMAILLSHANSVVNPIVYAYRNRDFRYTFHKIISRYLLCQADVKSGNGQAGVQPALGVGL
Sequence of UniProt Q13547 (whole entry, looked up): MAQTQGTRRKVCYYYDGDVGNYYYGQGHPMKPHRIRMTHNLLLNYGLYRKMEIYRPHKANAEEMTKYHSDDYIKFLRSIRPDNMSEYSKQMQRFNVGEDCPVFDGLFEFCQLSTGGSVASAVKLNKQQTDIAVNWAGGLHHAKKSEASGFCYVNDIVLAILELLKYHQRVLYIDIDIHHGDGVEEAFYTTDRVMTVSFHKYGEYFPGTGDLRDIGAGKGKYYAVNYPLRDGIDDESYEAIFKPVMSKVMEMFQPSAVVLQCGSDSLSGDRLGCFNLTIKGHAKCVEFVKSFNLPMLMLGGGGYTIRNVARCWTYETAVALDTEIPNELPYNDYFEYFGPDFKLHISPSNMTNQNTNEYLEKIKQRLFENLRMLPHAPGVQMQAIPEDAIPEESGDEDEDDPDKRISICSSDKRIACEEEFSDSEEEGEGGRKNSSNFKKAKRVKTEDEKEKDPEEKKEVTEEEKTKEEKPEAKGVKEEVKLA
Sequence of UniProt P09619 (whole entry, looked up): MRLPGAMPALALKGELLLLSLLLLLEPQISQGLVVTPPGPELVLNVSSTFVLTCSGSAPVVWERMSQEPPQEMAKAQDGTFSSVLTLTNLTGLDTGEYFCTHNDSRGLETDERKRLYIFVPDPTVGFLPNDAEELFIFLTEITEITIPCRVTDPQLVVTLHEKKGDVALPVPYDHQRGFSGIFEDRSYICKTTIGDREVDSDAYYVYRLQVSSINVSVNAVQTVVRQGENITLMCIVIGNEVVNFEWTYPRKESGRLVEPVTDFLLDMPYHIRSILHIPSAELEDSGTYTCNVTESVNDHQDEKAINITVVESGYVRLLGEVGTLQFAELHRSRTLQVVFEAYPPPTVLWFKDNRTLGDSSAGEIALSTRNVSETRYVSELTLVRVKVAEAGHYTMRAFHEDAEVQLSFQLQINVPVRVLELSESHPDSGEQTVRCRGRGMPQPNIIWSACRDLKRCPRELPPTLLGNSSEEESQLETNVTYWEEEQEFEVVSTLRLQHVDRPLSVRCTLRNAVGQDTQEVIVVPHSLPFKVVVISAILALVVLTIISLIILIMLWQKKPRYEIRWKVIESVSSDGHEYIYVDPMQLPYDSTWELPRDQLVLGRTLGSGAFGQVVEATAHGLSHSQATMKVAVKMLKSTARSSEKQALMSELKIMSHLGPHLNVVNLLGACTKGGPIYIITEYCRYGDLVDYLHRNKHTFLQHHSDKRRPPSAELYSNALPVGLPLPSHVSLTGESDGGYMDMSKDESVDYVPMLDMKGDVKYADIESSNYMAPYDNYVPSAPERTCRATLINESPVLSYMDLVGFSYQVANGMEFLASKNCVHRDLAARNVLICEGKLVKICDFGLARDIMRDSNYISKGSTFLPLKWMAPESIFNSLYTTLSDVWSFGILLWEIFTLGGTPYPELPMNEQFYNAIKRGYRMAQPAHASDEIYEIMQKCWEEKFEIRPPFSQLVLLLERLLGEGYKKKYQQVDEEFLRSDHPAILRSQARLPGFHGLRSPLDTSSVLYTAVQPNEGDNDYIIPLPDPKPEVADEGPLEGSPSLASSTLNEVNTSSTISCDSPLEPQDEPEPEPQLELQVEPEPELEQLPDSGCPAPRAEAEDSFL
Sequence of UniProt P14416 (whole entry, looked up): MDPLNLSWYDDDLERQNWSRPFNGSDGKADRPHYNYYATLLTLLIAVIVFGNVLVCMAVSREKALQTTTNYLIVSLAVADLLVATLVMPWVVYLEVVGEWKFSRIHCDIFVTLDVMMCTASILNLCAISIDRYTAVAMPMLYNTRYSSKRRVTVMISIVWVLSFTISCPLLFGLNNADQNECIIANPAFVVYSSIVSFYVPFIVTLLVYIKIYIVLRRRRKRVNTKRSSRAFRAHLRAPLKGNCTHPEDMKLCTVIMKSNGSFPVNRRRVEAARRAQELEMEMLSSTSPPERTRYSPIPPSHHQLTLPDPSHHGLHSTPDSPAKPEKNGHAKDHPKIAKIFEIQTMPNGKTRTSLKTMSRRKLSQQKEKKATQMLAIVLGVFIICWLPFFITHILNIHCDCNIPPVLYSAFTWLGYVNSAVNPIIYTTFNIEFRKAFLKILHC
Sequence of UniProt P35408 (whole entry, looked up): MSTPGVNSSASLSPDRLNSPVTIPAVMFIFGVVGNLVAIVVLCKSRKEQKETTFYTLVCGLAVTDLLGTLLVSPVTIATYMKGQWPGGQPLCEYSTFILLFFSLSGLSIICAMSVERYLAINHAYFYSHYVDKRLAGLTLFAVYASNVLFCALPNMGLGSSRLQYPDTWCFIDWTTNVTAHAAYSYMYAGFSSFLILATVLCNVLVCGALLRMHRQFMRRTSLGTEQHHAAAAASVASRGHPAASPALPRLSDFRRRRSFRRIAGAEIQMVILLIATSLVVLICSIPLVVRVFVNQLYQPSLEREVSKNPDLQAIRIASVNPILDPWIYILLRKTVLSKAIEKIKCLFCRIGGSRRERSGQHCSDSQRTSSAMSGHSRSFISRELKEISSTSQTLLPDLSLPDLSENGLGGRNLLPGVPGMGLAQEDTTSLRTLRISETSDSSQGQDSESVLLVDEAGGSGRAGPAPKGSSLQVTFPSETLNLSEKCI
Sequence of UniProt P32239 (whole entry, looked up): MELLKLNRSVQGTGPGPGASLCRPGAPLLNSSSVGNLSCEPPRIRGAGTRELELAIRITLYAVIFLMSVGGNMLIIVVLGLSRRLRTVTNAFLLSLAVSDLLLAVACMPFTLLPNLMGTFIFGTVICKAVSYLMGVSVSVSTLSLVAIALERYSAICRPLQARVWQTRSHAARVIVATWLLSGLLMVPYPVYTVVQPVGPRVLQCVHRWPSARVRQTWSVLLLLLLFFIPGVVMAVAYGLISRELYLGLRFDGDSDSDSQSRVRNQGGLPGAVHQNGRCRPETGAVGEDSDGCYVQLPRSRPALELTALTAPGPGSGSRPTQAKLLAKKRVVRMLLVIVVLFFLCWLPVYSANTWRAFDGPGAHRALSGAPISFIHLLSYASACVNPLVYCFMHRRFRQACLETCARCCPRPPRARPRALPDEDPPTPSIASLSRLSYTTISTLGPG
Sequence of UniProt Q86SM5 (whole entry, looked up): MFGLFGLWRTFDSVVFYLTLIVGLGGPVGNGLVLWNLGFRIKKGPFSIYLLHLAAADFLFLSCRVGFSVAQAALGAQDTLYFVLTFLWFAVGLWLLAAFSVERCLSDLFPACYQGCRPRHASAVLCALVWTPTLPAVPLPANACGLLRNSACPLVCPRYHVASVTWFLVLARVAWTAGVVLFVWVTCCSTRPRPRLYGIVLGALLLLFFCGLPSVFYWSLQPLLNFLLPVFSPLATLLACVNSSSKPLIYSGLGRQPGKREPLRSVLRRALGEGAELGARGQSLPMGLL

CNC1(c2ccccc2Cl)CCCCC1=O (racemic) — inhibition (D(2) dopamine receptor, short isoform (DRD2, Homo sapiens, UniProt P14416); radioligand binding, agonist, radioligand displacement; 30 µM): -2%
CC[C@H]1CN2CC[C@H]1C[C@H]2[C@H](O)c1ccnc2ccc(OC)cc12 — efficacy (BCHE; inhibitor; Triton): -54.3 ± 5%
CC[C@H](C)[C@H](NC(=O)CNC(=O)[C@@H](N)CCCCN)C(=O)N[C@@H](CC(C)C)C(=O)N[C@@H](CCCCN)C(=O)N[C@@H](CCCNC(=N)N)C(=O)N[C@@H](CCC(=O)O)C(=O)N[C@@H](CCCCN)C(=O)N[C@@H](CCCNC(=N)N)C(=O)N[C@@H](CC(C)C)C(=O)N[C@@H](CCCNC(=N)N)C(=O)N[C@@H](CCCNC(=N)N)C(=O)N[C@@H](CCCCN)C(=O)N[C@@H](CC(N)=O)C(=O)N[C@H](C(=O)N[C@@H](Cc1c[nH]cn1)C(=O)N[C@@H](Cc1c[nH]c2ccccc12)C(=O)N1CCC[C@H]1C(=O)N[C@@H](CCC(=O)O)C(=O)N[C@@H](CCC(=O)O)C(=O)NCC(=O)N[C@@H](CCCCN)C(=O)N[C@@H](CC(C)C)C(=O)N[C@@H](CCCNC(=N)N)C(=O)N[C@@H](CCC(=O)O)C(=O)N[C@@H](Cc1ccccc1)C(=O)N[C@@H](Cc1ccccc1)C(=O)N[C@@H](Cc1ccccc1)C(=O)N[C@@H](Cc1ccccc1)C(=O)N[C@@H](CCC(=O)O)C(=O)N[C@@H](CC(C)C)C(=O)N[C@@H](CC(=O)O)C(=O)N[C@@H](CCC(=O)O)C(=O)N[C@@H](C)C(=O)N[C@@H](CCC(=O)O)C(=O)N[C@@H](CCCNC(=N)N)C(=O)N[C@H](C(=O)N[C@@H](CC(N)=O)C(=O)N[C@H](C(=O)O)C(C)C)C(C)C)C(C)C — log2 fold change (HeLa and HEK-293T cells; phosphatase bead binding, competitive inhibitor, PIB pulldown iBAQ LC-MS/MS, refers to: STRN3; concentration not given; relative to: untreated control): -0.27
Cl.Cl.Clc1ccccc1CNCC1CCC(CNCc2ccccc2Cl)CC1 (stereo not drawn) — efficacy (BCHE; inhibitor; Triton): -90.8 ± 8.78%
CN(C(=O)n1cnc(-c2ccc[n+]([O-])c2)c1)C1CCCCC1 — inhibition (FGFR1 (Homo sapiens, UniProt P11362); kinase activity, inhibitor; 50 µM, human, with: poly(Glu:Tyr) substrate): -2%
COC1=CC(=O)c2c(O)c3c(c(O)c2C1=O)O[C@]1(Oc2c(cc4cc(C)oc(=O)c4c2O)[C@@H](O)[C@@H]1O)[C@@H]3O — log2 fold change (Staphylococcus aureus; RNA-Seq, refers to: nrdD; MRSA ATCC 433000; MIC, 12 h; relative to: untreated): -2.35
CC(C)(C)[C@]1(O)CCN2C[C@H]3c4ccccc4CCc4cccc(c43)[C@@H]2C1 — IC50 (Plasmodium falciparum; 3D7): 3.16 µM
COc1cc(N)c(Cl)cc1C(=O)NC[C@@H]1CCN2CCC[C@@H]12.Cl — efficacy (BCHE; concentration not given, Triton): -48.8 ± 16.9%
C[C@H]1CN(c2n[nH]c3nc(N[C@H]4CC[C@H](NS(=O)(=O)CCC(F)(F)F)CC4)ncc23)CCO1 — relative abundance (HDAC1 (Homo sapiens, UniProt Q13547); inhibitor, Kinobeads competition profiling; 0.16 µM; relative to: vehicle): 1.06
O=C(Nc1cnccc1Cl)N1CCN(Cc2ccc3c(c2)OC(F)(F)O3)CC1 — inhibition (CCKBR (Homo sapiens, UniProt P32239); radioligand binding; concentration not given): 1%
C[C@]12CC[C@H](O)C[C@@H]1CC[C@@H]1[C@@H]2CC[C@]2(C)[C@@H]([N+](=O)[O-])CC[C@@H]12 — activity ([3H]flunitrazepam binding; rat cerebral cortex homogenate; concentration not given): inactive
CN1CCN(c2cc(-c3ccncc3)c(-c3ccc4ccccc4c3)nn2)CC1 — inhibition (ADORA2B (Homo sapiens, UniProt P29275); antagonist, FLIPR; 10 µM): 11.6%
c1ccc2cc([C@]34CNC[C@H]3C4)ccc2c1 — dopamine uptake (SLC6A3 (Homo sapiens, UniProt Q01959); inhibitor, [3H]dopamine uptake; 10 nM; relative to: no inhibitor): 77.4% and 93.7% and 125%
O[C@@](Cc1ncc(CC2(C(F)(F)F)CC2)[nH]1)(c1ccc(-n2cccn2)cc1)C(F)(F)F — efficacy (BCHE; concentration not given, Triton): -58.4 ± 18.9%
Nc1nccc2c1ncn2[C@@H]1O[C@H](CO)[C@@H](O)[C@H]1O — IC50 (Plasmodium falciparum; 3D7): 5.01 µM
O=C(Nc1cccnn1)N1CCC(=Cc2cccc(Oc3ccc(C(F)(F)F)cn3)c2)CC1 — inhibition (PTGER4 (Homo sapiens, UniProt P35408); binding, refers to: EP4; 50 µM, human, with: [3H]prostaglandin E2): 86%
CC[C@H](NC(=O)[C@H](CS(=O)(=O)CC1CC1)N[C@@H](c1ccc(F)cc1)C(F)(F)F)C(=O)C(=O)NC1CC1 — efficacy (BCHE; concentration not given, Triton): -79.3 ± 19.1%
Oc1ccc2c3c1O[C@H]1[C@@H](O)CC[C@@]4(O)[C@@H](C2)N(CC2CCC2)CC[C@]314 — log2 fold change (Mas-related G-protein coupled receptor member G (MRGPRG, Homo sapiens, UniProt Q86SM5); β-arrestin recruitment, TANGO luminescence, refers to: MRGPRG; concentration not given; relative to: basal luminescence): 0.279
COc1ccc(N2C(=O)N(c3c(C)cccc3Cl)Cc3cnc(Nc4ccc(C5CCN(C)CC5)cc4OC)nc32)nc1 — inhibition (PDGFRB (Homo sapiens, UniProt P09619); kinase activity, inhibitor; 0.5 µM, kinase PDGFR-BETA): 100%
CCCN(CCc1ccsc1)C1CCc2c(O)cccc2C1.Cl (stereo not drawn) — efficacy (BCHE; concentration not given, Triton): -73.4 ± 5.86%
O=C(c1ccc(Cl)cc1)N1CCN2C(=O)N(OC(=O)N3CCOc4ccccc43)C(=O)C2C1 (stereo not drawn) — mean protein ratio (S-formylglutathione hydrolase (Homo sapiens, UniProt P10768); MS-based ABPP; SW-620 conditioned medium; 10 µM, 1 h, 37 °C; relative to: treated over control): 1.26

Some of these lines once more:
COC1=CC(=O)c2c(O)c3c(c(O)c2C1=O)O[C@]1(Oc2c(cc4cc(C)oc(=O)c4c2O)[C@@H](O)[C@@H]1O)[C@@H]3O — log2 fold change (Staphylococcus aureus; RNA-Seq, refers to: nrdD; MRSA ATCC 433000; MIC, 12 h; relative to: untreated): -2.35
CCCN(CCc1ccsc1)C1CCc2c(O)cccc2C1.Cl (stereo not drawn) — efficacy (BCHE; concentration not given, Triton): -73.4 ± 5.86%
c1ccc2cc([C@]34CNC[C@H]3C4)ccc2c1 — dopamine uptake (SLC6A3 (Homo sapiens, UniProt Q01959); inhibitor, [3H]dopamine uptake; 10 nM; relative to: no inhibitor): 77.4% and 93.7% and 125%
